{"data": "Measured values gathered from unrelated publications", "note": "Compare with care: the assays were run in different laboratories."}
{"SMILES": "CN(C)c1ccc(N(Cc2cc(Cl)cs2)C(=O)Cc2cncc3ccccc23)cc1", "cell line": "Calu-3", "conditions": "48 h", "measurement": "CC50", "value": "53.7 µM"}
{"SMILES": "Clc1ccc(-c2nn3c(Cn4cnc5ccccc54)nnc3s2)c(Cl)n1", "cell line": "HEp-2", "assay": "cytotoxicity", "measurement": "CC50", "value": "19.2 µM"}
{"SMILES": "Cc1cccc(N2CCN(C(=O)C3CCN(Cc4nc(-c5ccc(Cl)cc5)oc4C)CC3)CC2)c1C", "cell line": "Vero-E6", "assay": "CellTiter-Glo ATP", "conditions": "concentration not given, 72 h, first round 5-point", "scale": "reference: DMSO 0%, hyamine -100%, more negative, more toxic", "measurement": "cytotoxicity efficacy", "value": "0%"}
{"SMILES": "CC[C@H](C)[C@H](NC(=O)[C@H](C)NC(=O)[C@H](CO)NC(=O)[C@@H](NC(=O)[C@H](CCCCN)NC(=O)[C@H](CCSC)NC(=O)[C@H](CC(C)C)NC(=O)[C@H](CO)NC(=O)[C@H](CC(C)C)NC(=O)[C@@H](N)CCCNC(=N)N)[C@@H](C)O)C(=O)N[C@@H](CCCCN)C(=O)N[C@@H](CCCCN)C(=O)N[C@H](C(=O)N[C@@H](CCCNC(=N)N)C(=O)N[C@@H](CC(N)=O)C(=O)N1CCC[C@H]1C(=O)N[C@@H](CCCCN)C(=O)NCC(=O)N1CCC[C@H]1C(=O)N[C@@H](CC(C)C)C(=O)N[C@H](C(=O)N[C@@H](CC(C)C)C(=O)N[C@@H](CCCNC(=N)N)C(=O)N[C@@H](CC(C)C)C(=O)NCC(=O)N[C@@H](C)C(=O)N[C@@H](C)C(=O)N1CCC[C@H]1C(=O)N[C@H](C(=O)N[C@H](C(=O)N[C@@H](CCC(N)=O)C(=O)N1CCC[C@H]1C(=O)N[C@H](C(=O)N[C@@H](CCCNC(=N)N)C(=O)N[C@@H](CCCNC(=N)N)C(=O)N[C@H](C(=O)N[C@@H](Cc1ccccc1)C(=O)N1CCC[C@H]1C(=O)N[C@@H](CCCNC(=N)N)C(=O)O)C(C)C)[C@@H](C)O)[C@@H](C)O)C(C)C)[C@@H](C)CC)[C@@H](C)CC", "cell line": "THP-1, PMA-differentiated", "assay": "cell viability, MTT", "measurement": "CC50", "value": "236 µM"}
{"SMILES": "C[C@H]1CCC/C=C/[C@@H]2C[C@H](O)C[C@H]2[C@H](O)/C=C/C(=O)O1", "cell line": "THP-1 PMA-differentiated macrophages", "assay": "CellTiter-Glo", "conditions": "72 h, host cell cytotoxicity", "measurement": "CC50", "value": "0.07 µM"}
{"SMILES": "Clc1ccc(Cl)c(-c2nn3c(Cn4nnc5ccccc54)nnc3s2)c1", "cell line": "HEp-2", "assay": "cytotoxicity", "measurement": "CC50", "value": "> 100 µM"}
{"SMILES": "CC[C@H](C)[C@H](NC(=O)[C@H](Cc1c[nH]cn1)NC(=O)[C@@H](NC(=O)[C@@H](NC(=O)[C@H](CC(C)C)NC(=O)[C@H](CCCCN)NC(=O)[C@H](CCCCN)NC(=O)[C@@H]1CCCN1C(=O)[C@H](CC(C)C)NC(=O)[C@H](CC(C)C)NC(=O)[C@H](CCC(N)=O)NC(=O)[C@@H](NC(=O)CNC(=O)[C@H](CC(C)C)NC(=O)[C@H](CCC(N)=O)NC(=O)[C@H](CC(C)C)NC(=O)[C@H](CCCNC(=N)N)NC(=O)[C@H](CC(N)=O)NC(=O)[C@H](CCCCN)NC(=O)[C@H](CC(N)=O)NC(=O)[C@H](CCCNC(=N)N)NC(=O)[C@@H](NC(=O)[C@H](CO)NC(=O)[C@H](Cc1ccccc1)NC(=O)[C@H](CC(C)C)NC(=O)[C@H](Cc1ccccc1)NC(=O)[C@H](C)NC(=O)[C@H](CC(N)=O)NC(=O)[C@H](CC(N)=O)NC(=O)[C@@H](NC(=O)[C@H](CCCNC(=N)N)NC(=O)[C@@H](N)Cc1c[nH]cn1)C(C)C)[C@@H](C)CC)C(C)C)C(C)C)C(C)C)C(=O)N[C@@H](CCCNC(=N)N)C(=O)NCC(=O)N[C@@H](CCCCN)C(=O)N[C@@H](CCC(N)=O)C(=O)N1CCC[C@H]1C(=O)N[C@@H](C)C(=O)N[C@H](C(=O)N[C@@H](Cc1ccccc1)C(=O)O)C(C)C", "cell line": "THP-1, PMA-differentiated", "assay": "cell viability, MTT", "measurement": "CC50", "value": "141 µM"}
{"SMILES": "CC(C)C[C@H](NC(=O)OCc1ccccc1)C(=O)N[C@H](C=O)C[C@@H]1CCCNC1=O", "cell line": "Huh-7", "assay": "cytotoxicity", "measurement": "CC50", "value": "> 100 µM"}
{"SMILES": "C#C[C@@]1(O)[C@@H](CO)O[C@@H](n2cc(Br)c3c(N)ncnc32)[C@@H]1O", "cell line": "Malme-3M", "assay": "SRB", "conditions": "NCI-60 screen", "measurement": "CC50", "value": "82.6 µM"}
{"SMILES": "Cc1ccc(-c2nn3c(Cn4c(-c5ccccn5)nc5ccccc54)nnc3s2)cc1C", "cell line": "HEp-2", "assay": "cytotoxicity", "measurement": "CC50", "value": "> 100 µM"}
{"SMILES": "CC[C@H](C)[C@H](NC(=O)[C@H](Cc1ccccc1)NC(=O)[C@H](Cc1ccccc1)NC(=O)[C@@H](NC(=O)[C@@H](NC(=O)[C@H](CCCCN)NC(=O)[C@H](CCC(N)=O)NC(=O)[C@H](Cc1c[nH]cn1)NC(=O)[C@H](CO)NC(=O)[C@H](CO)NC(=O)[C@@H](NC(=O)[C@@H]1CCCN1C(=O)[C@H](C)NC(=O)[C@H](Cc1ccccc1)NC(=O)[C@H](CCCNC(=N)N)NC(=O)[C@H](CC(C)C)NC(=O)[C@H](Cc1ccccc1)NC(=O)[C@H](CCCCN)NC(=O)[C@H](C)NC(=O)CNC(=O)[C@H](CCCCN)NC(=O)[C@H](CCCNC(=N)N)NC(=O)[C@H](CCCCN)NC(=O)[C@@H](NC(=O)[C@H](Cc1ccccc1)NC(=O)[C@@H](NC(=O)[C@H](CC(=O)O)NC(=O)[C@@H](NC(=O)[C@@H](NC(=O)[C@@H](N)CCCCN)[C@@H](C)CC)[C@@H](C)O)C(C)C)C(C)C)C(C)C)C(C)C)[C@@H](C)O)C(=O)N[C@@H](Cc1c[nH]cn1)C(=O)O", "cell line": "THP-1, PMA-differentiated", "assay": "cell viability, MTT", "measurement": "CC50", "value": "98.1 µM"}
{"SMILES": "Cc1nc2ccccc2n1Cc1nnc2sc(-c3cncc(Br)c3)nn12", "cell line": "HEp-2", "assay": "cytotoxicity", "measurement": "CC50", "value": "40 µM"}
{"SMILES": "O=C(Nc1ccc(Oc2ccc(Cl)cc2)c(Cl)c1)c1cc(I)cc(I)c1O", "cell line": "LMH chicken hepatoma cells", "measurement": "CC50", "value": "164 µM"}
{"SMILES": "CC(C)C[C@H](NC(=O)[C@H](CCCNC(=N)N)NC(=O)[C@H](CCCNC(=N)N)NC(=O)[C@H](CCCNC(=N)N)NC(=O)[C@@H]1CCCN1C(=O)[C@H](Cc1ccccc1)NC(=O)[C@H](Cc1ccc(O)cc1)NC(=O)[C@H](CCCNC(=N)N)NC(=O)[C@H](Cc1ccc(O)cc1)NC(=O)[C@@H](NC(=O)[C@H](CC(C)C)NC(=O)[C@H](Cc1ccc(O)cc1)NC(=O)[C@H](CCCNC(=N)N)NC(=O)[C@H](Cc1c[nH]cn1)NC(=O)[C@@H]1CCCN1C(=O)[C@H](Cc1c[nH]c2ccccc12)NC(=O)[C@H](Cc1ccc(O)cc1)NC(=O)[C@H](Cc1ccccc1)NC(=O)[C@@H]1CCCN1C(=O)[C@H](CCC(N)=O)NC(=O)[C@H](Cc1ccccc1)NC(=O)[C@@H]1CCCN1C(=O)[C@H](Cc1ccccc1)NC(=O)[C@H](CCCNC(=N)N)NC(=O)[C@H](Cc1c[nH]cn1)NC(=O)[C@H](CC(N)=O)NC(=O)[C@H](CS)NC(=O)[C@H](CCCNC(=N)N)NC(=O)[C@H](CO)NC(=O)[C@@H]1CCCN1C(=O)[C@@H](NC(=O)[C@H](Cc1ccccc1)NC(=O)[C@@H]1CCCN1C(=O)[C@@H](N)CCCNC(=N)N)C(C)C)[C@@H](C)O)C(=O)N[C@@H](CCC(N)=O)C(=O)N[C@@H](CCCNC(=N)N)C(=O)O", "cell line": "THP-1, PMA-differentiated", "assay": "cell viability, MTT", "measurement": "CC50", "value": "91.9 µM"}
{"SMILES": "Brc1ccc(-c2nn3c(Cn4cnc5ccccc54)nnc3s2)cc1", "cell line": "HEp-2", "assay": "cytotoxicity", "measurement": "CC50", "value": "> 100 µM"}
{"SMILES": "Nc1ncnc2c1ccn2[C@@]12C[C@H]1[C@H](CO)[C@@H](O)[C@H]2O", "cell line": "monkey cell line", "assay": "visual", "measurement": "CC50", "value": "> 100 µM"}
{"SMILES": "Cc1nc2ccccc2n1Cc1nnc2sc(-c3ccc(Cl)nc3Cl)nn12", "cell line": "HEp-2", "assay": "cytotoxicity", "measurement": "CC50", "value": "> 100 µM"}
{"SMILES": "CC(C)NCC(O)COc1cccc2ccccc12 (stereo not drawn)", "cell line": "A549", "assay": "MTT", "conditions": "72 h", "measurement": "CC50", "value": "73.3 µM"}
{"SMILES": "Cc1cc(COc2ccc([C@]3(N)CCN([C@H](CC(C)C)C(=O)NO)C3=O)cc2)c2ccccc2n1", "cell line": "293T or HeLa", "assay": "CellTiter-Glo", "conditions": "72 h", "measurement": "CC50", "value": "> 10 µM"}
{"SMILES": "CCCCN(CCCC)CCCNC(=O)c1cc(-c2ccc(Cl)s2)nc2ccccc12", "cell line": "Vero-E6", "assay": "CellTiter-Glo ATP", "conditions": "concentration not given, 72 h, retest 8-point duplicates", "scale": "reference: DMSO 0%, hyamine -100%, more negative, more toxic", "measurement": "cytotoxicity efficacy", "value": "-16.1%"}
{"SMILES": "CC(C)C[C@H](NC(=O)[C@H](CCCNC(=N)N)NC(=O)[C@H](CCCNC(=N)N)NC(=O)[C@H](CCCNC(=N)N)NC(=O)[C@@H]1CCCN1C(=O)[C@H](Cc1ccccc1)NC(=O)[C@H](Cc1ccc(O)cc1)NC(=O)[C@H](CCCNC(=N)N)NC(=O)[C@H](Cc1ccc(O)cc1)NC(=O)[C@@H](NC(=O)[C@H](CC(C)C)NC(=O)[C@H](Cc1ccc(O)cc1)NC(=O)[C@H](CCCNC(=N)N)NC(=O)[C@H](Cc1c[nH]cn1)NC(=O)[C@@H]1CCCN1C(=O)[C@H](Cc1c[nH]c2ccccc12)NC(=O)[C@H](Cc1ccc(O)cc1)NC(=O)[C@H](Cc1ccccc1)NC(=O)[C@@H]1CCCN1C(=O)[C@H](CCC(N)=O)NC(=O)[C@H](Cc1ccccc1)NC(=O)[C@@H]1CCCN1C(=O)[C@H](Cc1ccccc1)NC(=O)[C@H](CCCNC(=N)N)NC(=O)[C@H](Cc1c[nH]cn1)NC(=O)[C@H](CC(N)=O)NC(=O)[C@H](CS)NC(=O)[C@H](CCCNC(=N)N)NC(=O)[C@H](CO)NC(=O)[C@@H]1CCCN1C(=O)[C@@H](NC(=O)[C@H](Cc1ccccc1)NC(=O)[C@@H]1CCCN1C(=O)[C@H](CCCNC(=N)N)NC(=O)[C@H](CC(N)=O)NC(=O)[C@@H]1CCCN1C(=O)[C@H](Cc1ccccc1)NC(=O)[C@H](CCCNC(=N)N)NC(=O)[C@@H](N)Cc1ccccc1)C(C)C)[C@@H](C)O)C(=O)N[C@@H](CCC(N)=O)C(=O)N[C@@H](CCCNC(=N)N)C(=O)O", "cell line": "THP-1, PMA-differentiated", "assay": "cell viability, MTT", "measurement": "CC50", "value": "58 µM"}
{"note": "For quick reference, copied from above:"}
{"SMILES": "Nc1ncnc2c1ccn2[C@@]12C[C@H]1[C@H](CO)[C@@H](O)[C@H]2O", "cell line": "monkey cell line", "assay": "visual", "measurement": "CC50", "value": "> 100 µM"}
{"SMILES": "Cc1nc2ccccc2n1Cc1nnc2sc(-c3ccc(Cl)nc3Cl)nn12", "cell line": "HEp-2", "assay": "cytotoxicity", "measurement": "CC50", "value": "> 100 µM"}
